Published values from different studies.
Numbered parts are unrelated; each lists some results of a single study. Positions count from the first letter of the parent shown.

Set 1 — target: CCNE1, cyclin fold, Cln2 fusion (human); method: yeast growth competition, sequencing; sample: yeast; notes: weak parent motif; baseline: not given; direction: higher = stronger binding
Starting sequence: CDC6 docking peptide (human); TLKGRRLVFDNQL
Under “normalised enrichment score”, `L13N` is recorded as 0.548.
`L2R` — result for “normalised enrichment score”: 0.983.
Under “normalised enrichment score”, `D10T` is recorded as -0.233.
Under “normalised enrichment score”, `L13F` is recorded as 0.201.

Set 2 — method: aptamer microarray, sandwich; form: DNA with 2'F-ANA; sample: in vitro; concentration: 200 nM; added: Cy3 exosite-II aptamer, 400 nM; direction: higher = stronger binding; oligonucleotide: GGTTGGTGTGGTTGG
Target: Prothrombin, mature alpha-thrombin (F2, Homo sapiens, UniProt P00734)
Notes: whole 15-mer aptamer, many near background
`2'F-ANA at 5 11 12 14 15` — result for “mean fluorescence intensity”: 45 a.u.
`2'F-ANA at 1 4 5 8 13 14 15` — result for “mean fluorescence intensity”: 65.5 a.u.
`2'F-ANA at 1 4 5 7 8 10 11 12 14 15` — result for “mean fluorescence intensity”: 101 a.u.
`2'F-ANA at 1 2 3 4 6 7 8 11 13 14 15` — result for “mean fluorescence intensity”: 63.7 a.u.
For `2'F-ANA at 1 5 6 7 8 13 14`, “mean fluorescence intensity” read 51.5 a.u.
Under “mean fluorescence intensity”, `2'F-ANA at 4 5 6 7 9 11 12 13 14 15` is recorded as 54.5 a.u.
`2'F-ANA at 3 4 7 9 12 13 14 15` — result for “mean fluorescence intensity”: 339 a.u.

Set 3 — method: protein-binding microarray; form: double-stranded DNA, one strand shown; sample: in vitro; concentration: not given; direction: higher = stronger binding
Target: Protein max, full length (MAX, Homo sapiens, UniProt P61244-2, residues 1-151)
Notes: k-mer, scored over probes, only values ≥0.25
`CACCCCAC` gave an E-score of 0.255.
The E-score of `CGTGACAC` is reported as 0.416.
`CAAGCACG` has an E-score of 0.381.
With `ACGTGACT` the E-score was 0.434.
`ATGCGTTA` has an E-score of 0.296.
For `CATGGCTC`, the E-score was 0.333.
`AGCGCATG` has an E-score of 0.427.
The E-score of `AAGCATGA` is reported as 0.397.
With `CATATGCA` the E-score was 0.271.

Single results of other studies
The fold induction of `PhoQ, residues 284 288 289 292 302 303 AEGLLW` is reported as 20.7 (PhoP, residues 12 14 15 18 19 NHFIF (Escherichia coli, UniProt P23836); Sort-seq, measured: YFP reporter; E. coli; PhoQ-PhoP variant library, added: 10 µM Mg2+; baseline: high Mg2+ state, higher = stronger signaling).

Some of these lines once more (set 3):
`ATGCGTTA` has an E-score of 0.296.
For `CATGGCTC`, the E-score was 0.333.
With `CATATGCA` the E-score was 0.271.
